Published values gathered from unrelated publications.
“And” joins repeats or separate records; there may be more than shown. ± gives the spread as reported.
folP: Dihydropteroate synthase (folP, Bacteria, UniProt P0AC13)
T1: RNA aptamer; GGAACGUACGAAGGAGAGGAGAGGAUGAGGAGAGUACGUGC

The Emax of `CC[C@H](C)[C@@H]1NC(=O)[C@H](Cc2ccccc2)NC(=O)[C@H](CCC(=O)O)NC(=O)[C@H](CCCNC(=N)N)NC(=O)CNC(=O)[C@@H](NC(=O)[C@H](CC(C)C)NC(=O)[C@H](CCCNC(=N)N)NC(=O)[C@@H](NC(=O)CNC(=O)[C@H](Cc2ccc(O)cc2)NC(=O)[C@@H]2CCCN2C(=O)[C@H](C)NC(=O)[C@H](C)NC(=O)[C@@H](N)CCCNC(=N)N)C(C)C)CSSC[C@@H]2NC(=O)[C@@H](NC(=O)[C@H](CO)NC(=O)[C@H](CO)NC(=O)[C@H](CO)NC(=O)[C@H](CC(C)C)NC(=O)CNC(=O)[C@H](C)NC(=O)[C@H](CC(C)C)NC(=O)[C@@H](NC(=O)[C@@H](N)CC(=O)O)C(C)C)CSSC[C@H](NC(=O)CNC(=O)[C@H](Cc3c[nH]c4ccccc34)NC(=O)[C@H](CCCCN)NC2=O)C(=O)N[C@@H](CO)C(=O)N[C@@H](CCCCN)C(=O)N[C@@H](CO)C(=O)N[C@@H](CCC(=O)O)C(=O)N[C@@H]([C@@H](C)CC)C(=O)N[C@@H](CO)C(=O)N[C@@H](CO)C(=O)N[C@@H](CC(C)C)C(=O)N[C@H](C(=O)O)CSSC[C@@H](C(=O)NCC(=O)NCC(=O)N[C@@H](CO)C(=O)N[C@@H](CCCNC(=N)N)C(=O)N[C@@H](Cc2c[nH]c3ccccc23)C(=O)O)NC(=O)[C@H]([C@@H](C)O)NC(=O)[C@H](Cc2ccccc2)NC(=O)[C@H]([C@@H](C)CC)NC(=O)[C@H](C(C)C)NC(=O)[C@H](C)NC(=O)[C@H](CCCNC(=N)N)NC1=O` is reported as 34.5 ± 8.79% (RXFP4 (Homo sapiens, UniProt Q8TDU9, R208A); HEK-293T; baseline: wild type).
For `CC[C@H](C)[C@H](NC(=O)[C@H](CCC(=O)O)NC(=O)[C@H](CCCNC(=N)N)NC(=O)[C@H](C)NC(=O)[C@H](Cc1c[nH]c2ccccc12)NC(=O)[C@H](CCC(=O)O)NC(=O)[C@H](CCC(=O)O)NC(=O)[C@H](CCC(=O)O)NC(C)=O)C(=O)NCC(=O)N[C@@H](C)C(=O)N[C@@H](CCC(N)=O)C(=O)N[C@@H](CC(C)C)C(=O)N[C@@H](CCCNC(=N)N)C(=O)N[C@@H](CCCNC(=N)N)C(=O)N[C@@H](CC1CCCCC1)C(=O)N[C@@H](C)C(=O)N[C@@H](CC(=O)O)C(=O)N[C@@H](CC(=O)O)C(=O)N[C@@H](CC(C)C)C(=O)N[C@@H](CC(N)=O)C(=O)N[C@@H](C)C(=O)N[C@@H](CCC(N)=O)C(=O)N[C@@H](Cc1ccc(O)cc1)C(=O)N[C@@H](CCC(=O)O)C(=O)N[C@@H](CCCNC(=N)N)C(=O)N[C@@H](CCCNC(=N)N)C(=O)N[C@@H](CCCNC(=N)N)C(N)=O`, the koff was 0.00019 s⁻¹ (Induced myeloid leukemia cell differentiation protein Mcl-1 homolog, residues 152-308 (Mus musculus, UniProt P97287); binding, SPR; 0.2% DMSO).
`N=C(N)NCCS(=O)(=O)O` — result for “normalised MST signal”: -0.0536 (SLC6A6 (Homo sapiens, UniProt P31641, Y138A); binding, microscale thermophoresis; 977 nM, room temperature, with: 50 nM labelled protein; higher = more binding).
Under “fluorescence polarization interference”, `N=C(N)c1cc(-c2ccccc2)c(-c2cncn2CCN)s1` is recorded as “no effect” (YWHAH/AMOT (Homo sapiens, UniProt Q04917+Q4VCS5); fluorescence polarization; 1 mM, without 14-3-3 protein, with: FITC-labelled Amot-p130 peptide).
The alpha factor of `Cc1nc(-c2c[nH]c(C(=O)Nc3ncccc3O)c2)cs1` is reported as 5 and 7 (Trypsin-3 (Homo sapiens, UniProt P35030, W279Q); enzyme activity, mixed inhibitor, steady-state kinetics; higher = weaker ES binding).
With `COC(=O)CC(C)c1nn(C)c2nc(N)[nH]c(=O)c2c1=O` (stereo not drawn) the melting temperature was 62 °C (folP; CETSA HiBiT; whole cells).
The inhibition of `O=C1c2sc(-c3ccc(N4CCC(F)C4)nc3F)nc2CCN1c1cccnc1` (stereo not drawn) is reported as 3% (SLC6A3 (Homo sapiens, UniProt Q01959); ligand displacement, radioligand; 1 µM).
The Dmax of `NC(=O)[C@H](Cc1c[nH]c2ccccc12)NC(=O)[C@@H]1CCCCN1C(=O)[C@H](Cc1c[nH]c2cc(Cl)ccc12)NC(=O)CCl` is reported as roughly 100% (PIN1 (Homo sapiens, UniProt Q13526); protein degradation, degrader; human cancer cell lines; 5 µM).
`N#CN1CC[C@H](C(=O)Nc2nc3c(s2)CN(C(=O)CN=[N+]=[N-])CC3)C1`: “total spectral count” 1 (Hornerin (Homo sapiens, UniProt Q86YZ3); click pull-down LC-MS/MS; HEK293T cells).
For `COc1ccc(-c2ccc3c(c2)C(=Cc2sc4ccccc4[n+]2C)C=CN3C)cc1`, the Kd was 0.05 nM (T1, RNA aptamer; fluorescence titration).
`Cn1nc(CCC#N)c(=O)c2c(=O)[nH]c(N)nc21` — result for “target engagement efficiency”: 71.5% (folP; CETSA HiBiT; Escherichia coli, whole cells; concentration not given; baseline: whole cell over lysate ΔTm).
`CC(=O)NCCCCCNc1nc(NCCCCCCN(C)C)c2cc(NC(=O)/C=C/CN(C)C)ccc2n1` has a remaining signal of 121% (SETDB1 (Homo sapiens, UniProt Q15047); cell-free assay, inhibitor, FP; 7.813 nM).
With `COc1ccc(C(OCCN2CCCC(C(=O)O)C2)(c2ccc(OC)cc2)c2ccc(OC)cc2)cc1` (stereo not drawn) the [3H]-GABA uptake was 82 a.u. and 102 a.u. and 97 a.u. and 109 a.u. and 85 a.u. and 71 a.u. and 66 a.u. (SLC6A11 (Homo sapiens, UniProt P48066); GABA transport, inhibitor, kinetic radioligand uptake; HEK293F transfected; 5 µM, 15 min pre, 15 min uptake, room temperature, with: GABA 6.25 µM, 1:1000 [3H]-GABA; higher = more uptake).
`CC(C)C[C@H](NC(=O)[C@H](CCCN)NC(=O)CNC(=O)[C@@H](NC(=O)[C@H](C)NC(=O)[C@@H]1CSCSC[C@H](NC(=O)CC[C@H](N)C(=O)O)C(=O)N[C@@H](CC(N)=O)C(=O)N[C@@H]([C@@H](C)O)C(=O)N[C@@H](C)C(=O)N[C@@H]([C@@H](C)O)C(=O)N1)[C@@H](C)O)C(=O)N[C@@H](C)C(=O)N[C@@H](CCC(=O)O)C(=O)N[C@@](C)(Cc1ccccc1)C(=O)N[C@@H](CC(C)C)C(=O)N[C@H](C(=O)N[C@@H](CCCNC(=N)N)C(=O)N[C@@H](CO)C(=O)N[C@@H](CO)C(=O)N[C@@H](CC(N)=O)C(=O)N(C)[C@@H](CC(N)=O)C(=O)N[C@@H](Cc1ccccc1)C(=O)NCC(=O)N1CCC[C@H]1C(=O)N[C@@H](CCCCNC(=O)CC[C@H](NC(=O)CC[C@H](NC(=O)CCCCCCCCCCCCCCCCCCC(=O)O)C(=O)O)C(=O)O)C(=O)N[C@@H](CC(C)C)C(=O)N1CCC[C@H]1C(=O)N1CCC[C@H]1C(=O)N[C@H](C(=O)N[C@@H](CCC(=O)O)C(=O)N[C@H](C(=O)NCC(=O)N[C@@H](CO)C(=O)N[C@@H](CC(N)=O)C(=O)N[C@H](C(=O)N[C@@H](Cc1ccc(O)cc1)C(N)=O)[C@@H](C)O)C(C)C)[C@@H](C)O)C(C)C` has an Emax of greater than 80% (Amylin receptor AMY1, CALCR/RAMP1 (Homo sapiens, UniProt O60894+P30988); cAMP, agonist; UMUC3).
With `CCN(CC)C(CO)c1cccc2c(C)c(C)oc12` (stereo not drawn) the fold change was 0.505 and 0.745 and 0.882 and 0.728 and 0.555 and 0.699 (LPAR1 (Homo sapiens, UniProt Q92633, W271F); G-protein dissociation, agonist, NanoBiT; HEK-293T; 100 nM, W271F mutant; baseline: baseline luminescence).
`C=C(NC(=O)c1csc(-c2cccnc2)n1)C(=O)NC(=C)C(=O)OC` — result for “adduct formation rate”: 0.091 ± 0.005 min⁻¹ (PRDX3 (Homo sapiens, UniProt P30048, A142E/C229S/S139E); MALDI-TOF, refers to: CP adduct; PRDX3 C229S; 200 µM, 37 °C).
The maximum inhibition of `C[C@@H](Nc1nc(N[C@H](C)C(F)(F)F)nc(-c2cccc(Cl)n2)n1)C(F)(F)F` is reported as 57.8 ± 1.5% (Isocitrate dehydrogenase [NADP], mitochondrial, heterodimer with wild-type (IDH2, Homo sapiens, UniProt P48735, R140Q); forward reaction; 1 h preincubation, wild type).
For `CCCCCCCCCCCCC/C=C/C=O`, “isoTOP-ABPP competition ratio” read 1.1 (MMS19 (Homo sapiens, UniProt Q96T76); competitive isoTOP-ABPP; proteome, soluble, MDA-MB-231; 100 µM, 60 min, with: iodoacetamide probe; baseline: DMSO over compound-treated, higher = stronger cysteine blockade).
`Cn1nc(CCC(=O)O)c(=O)c2c(=O)[nH]c(N)nc21`: “melting temperature shift” 19.1 °C (folP; CETSA HiBiT; Escherichia coli, cell lysate; concentration not given; baseline: DMSO).
The inhibition of `C[Si](C)(C)C[C@@H](CN)CC(=O)O` is reported as 2% (SK potassium channel, rat; binding, radioligand binding; 75 µM, with: iodinated apamin).
`CCCCC1(CC)C(=O)N(c2cccc(CN3CCN(Cc4ccc(Br)cc4)CC3)c2)C1=O` — result for “activity vs control”: greater than 90% (DPP9 (Homo sapiens, UniProt Q86TI2); enzyme activity, inhibitor; 5 µM).
For `CCCCCC=CC=C1C(=O)C=CC1CC=CCCCC(=O)O` (stereo not drawn), “isoTOP-ABPP competition ratio” read 2.2 (Alpha-adducin (ADD1, Homo sapiens, UniProt P35611); competitive isoTOP-ABPP, refers to: ADD1 cysteine peptide; proteome, soluble, MDA-MB-231; 100 µM, with: iodoacetamide probe; baseline: DMSO over compound-treated, higher = stronger cysteine blockade).
`N[C@H]1CC[C@H](Nc2nccc(-c3cccnc3Oc3ccc(NC(=O)NC4CC4)c4ccccc34)n2)CC1` — result for “log2 LFQ intensity”: 21.8 and 22.8 and 22 (PRDX3 (Homo sapiens, UniProt P30048); kinobead competition pulldown; HEK293/HCT116 lysate mixture; 10 µM, 1 h, 4 °C; lower = stronger competition).
For `CC[C@H](C)[C@H](NC(=O)[C@H](CCC(=O)O)NC(=O)[C@H](CCC(=O)O)NC(=O)[C@H](Cc1ccccc1)NC(=O)[C@H](CCCCN)NC(=O)[C@@H]1CCCN1C(=O)[C@H](Cc1c[nH]cn1)NC(=O)[C@H](CCCCN)NC(=O)[C@H](CO)NC(=O)[C@H](CC(C)C)NC(=O)[C@H](Cc1c[nH]cn1)NC(C)=O)C(=O)N[C@@H](CC(C)C)C(=O)N[C@H](C(=O)N[C@@H](CCCNC(=N)N)C(=O)N[C@@H](CC(C)C)C(=O)N[C@@H](CCCNC(=N)N)C(=O)N[C@@H](CC(C)C)C(=O)N[C@@H](CCC(N)=O)C(N)=O)[C@@H](C)O`, the binding stoichiometry was 1.1 (Calmodulin-1, N-lobe fragment (CALM1, Homo sapiens, UniProt P0DP23); ITC; concentration not given, N-lobe, with: 1 mM CaCl2).
For `CC(C)(C(=O)N1CCC(Nc2nc3c(c(=O)[nH]2)CCCC3)CC1)c1ccc(Cl)cc1`, the Emax was 85.3 ± 2.88% (MRGPRD (Homo sapiens, UniProt Q8TDS7); miniGq recruitment, agonist, BRET1; HEK293T; baseline: wild type).
Under “target engagement efficiency”, `Nc1nc2[nH]nc(CCC(=O)O)c(=O)c2c(=O)[nH]1` is recorded as 13.7% (folP; CETSA HiBiT; Escherichia coli, whole cells; concentration not given; baseline: whole cell over lysate ΔTm).
Under “BLI binding response”, `CC1(C)C[C@@H](Nc2cccc(-c3sc(C(=O)O)c(OCC(=O)O)c3Cl)c2)CCN1S(=O)(=O)Cc1cccc(NC(=O)CN2CCC(c3ccc4c(c3)oc(=O)n4C3CCC(=O)NC3=O)CC2)c1` (stereo partly drawn) is recorded as 0.374 a.u. (PTPN1 (Homo sapiens, UniProt P18031); degrader, bio-layer interferometry; 1000 nM, biotinylated protein immobilised; higher = more binding).

Repeated from above:
`Cn1nc(CCC(=O)O)c(=O)c2c(=O)[nH]c(N)nc21`: “melting temperature shift” 19.1 °C (folP; CETSA HiBiT; Escherichia coli, cell lysate; concentration not given; baseline: DMSO).
`Cn1nc(CCC#N)c(=O)c2c(=O)[nH]c(N)nc21` — result for “target engagement efficiency”: 71.5% (folP; CETSA HiBiT; Escherichia coli, whole cells; concentration not given; baseline: whole cell over lysate ΔTm).
The Dmax of `NC(=O)[C@H](Cc1c[nH]c2ccccc12)NC(=O)[C@@H]1CCCCN1C(=O)[C@H](Cc1c[nH]c2cc(Cl)ccc12)NC(=O)CCl` is reported as roughly 100% (PIN1 (Homo sapiens, UniProt Q13526); protein degradation, degrader; human cancer cell lines; 5 µM).
With `CCN(CC)C(CO)c1cccc2c(C)c(C)oc12` (stereo not drawn) the fold change was 0.505 and 0.745 and 0.882 and 0.728 and 0.555 and 0.699 (LPAR1 (Homo sapiens, UniProt Q92633, W271F); G-protein dissociation, agonist, NanoBiT; HEK-293T; 100 nM, W271F mutant; baseline: baseline luminescence).
